# Results from different studies.
# Protocols differ between the studies behind these lines. Values joined by “and” are separate records of one study, mostly repeats; a detail may differ.
# CA2: Carbonic anhydrase 2 (CA2, Homo sapiens, UniProt P00918)
# TMEM97: Sigma intracellular receptor 2 (TMEM97, Homo sapiens, UniProt Q5BJF2)
# Chain of UniProt Q5BJF2 (whole entry, looked up): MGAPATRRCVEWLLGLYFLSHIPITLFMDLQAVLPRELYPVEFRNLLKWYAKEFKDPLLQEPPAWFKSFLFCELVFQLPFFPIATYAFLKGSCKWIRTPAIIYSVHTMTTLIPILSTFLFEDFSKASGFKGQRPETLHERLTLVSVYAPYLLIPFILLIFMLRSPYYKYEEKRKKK
# sapA: sapA (Haemophilus influenzae, UniProt Q4QL73)
# CA12: Carbonic anhydrase 12 (CA12, Homo sapiens, UniProt O43570)
# Chain of UniProt O43570 (whole entry, looked up): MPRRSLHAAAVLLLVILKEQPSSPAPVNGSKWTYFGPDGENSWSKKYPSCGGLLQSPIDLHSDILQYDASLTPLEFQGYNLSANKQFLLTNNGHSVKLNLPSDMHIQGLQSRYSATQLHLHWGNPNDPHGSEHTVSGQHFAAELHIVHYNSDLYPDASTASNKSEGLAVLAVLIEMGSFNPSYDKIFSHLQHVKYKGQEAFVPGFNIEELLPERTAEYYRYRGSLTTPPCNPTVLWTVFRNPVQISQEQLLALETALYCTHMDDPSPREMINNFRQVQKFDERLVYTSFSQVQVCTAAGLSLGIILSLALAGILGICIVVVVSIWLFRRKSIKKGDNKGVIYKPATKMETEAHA
# Penicillin-binding protein 2X: Penicillin-binding protein 2X (Streptococcus pneumoniae R6, UniProt P59676)
# PFF0160c: Dihydroorotate dehydrogenase (quinone), mitochondrial (PFF0160c, Plasmodium falciparum, UniProt Q08210)
# PFF0160c E182D: Dihydroorotate dehydrogenase (quinone), mitochondrial (PFF0160c, Plasmodium falciparum, UniProt Q08210, E182D)
# APLNR: Apelin receptor (APLNR, Homo sapiens, UniProt P35414)
# Chain of UniProt P35414 (whole entry, looked up): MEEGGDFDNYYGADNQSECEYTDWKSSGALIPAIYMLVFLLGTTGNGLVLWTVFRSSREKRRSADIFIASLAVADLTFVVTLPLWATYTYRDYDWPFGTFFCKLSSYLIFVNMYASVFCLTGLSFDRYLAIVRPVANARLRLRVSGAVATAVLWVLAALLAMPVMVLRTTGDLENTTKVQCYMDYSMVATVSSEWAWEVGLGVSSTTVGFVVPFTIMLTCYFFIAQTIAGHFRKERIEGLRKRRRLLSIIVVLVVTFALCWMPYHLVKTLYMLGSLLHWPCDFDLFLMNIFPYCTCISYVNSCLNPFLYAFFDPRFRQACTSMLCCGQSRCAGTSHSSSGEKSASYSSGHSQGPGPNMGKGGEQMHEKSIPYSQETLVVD
# Chain of UniProt P31645 (whole entry, looked up): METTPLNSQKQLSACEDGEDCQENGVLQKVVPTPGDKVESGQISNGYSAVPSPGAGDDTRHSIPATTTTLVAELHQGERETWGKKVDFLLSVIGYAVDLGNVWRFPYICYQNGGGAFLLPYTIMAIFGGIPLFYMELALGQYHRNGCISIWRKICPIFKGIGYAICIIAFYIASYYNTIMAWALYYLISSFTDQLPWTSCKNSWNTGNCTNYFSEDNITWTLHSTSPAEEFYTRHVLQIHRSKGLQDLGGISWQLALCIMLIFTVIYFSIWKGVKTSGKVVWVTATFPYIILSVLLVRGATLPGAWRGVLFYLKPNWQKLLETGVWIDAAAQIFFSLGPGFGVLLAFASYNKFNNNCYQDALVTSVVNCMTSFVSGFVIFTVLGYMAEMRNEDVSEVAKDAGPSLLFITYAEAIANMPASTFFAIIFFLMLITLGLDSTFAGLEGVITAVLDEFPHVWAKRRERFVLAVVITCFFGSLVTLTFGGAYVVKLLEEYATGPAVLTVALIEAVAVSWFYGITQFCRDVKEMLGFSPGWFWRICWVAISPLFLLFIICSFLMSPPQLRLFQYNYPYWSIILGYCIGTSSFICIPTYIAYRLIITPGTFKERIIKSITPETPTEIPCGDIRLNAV
# Chain of UniProt P25440 (whole entry, looked up): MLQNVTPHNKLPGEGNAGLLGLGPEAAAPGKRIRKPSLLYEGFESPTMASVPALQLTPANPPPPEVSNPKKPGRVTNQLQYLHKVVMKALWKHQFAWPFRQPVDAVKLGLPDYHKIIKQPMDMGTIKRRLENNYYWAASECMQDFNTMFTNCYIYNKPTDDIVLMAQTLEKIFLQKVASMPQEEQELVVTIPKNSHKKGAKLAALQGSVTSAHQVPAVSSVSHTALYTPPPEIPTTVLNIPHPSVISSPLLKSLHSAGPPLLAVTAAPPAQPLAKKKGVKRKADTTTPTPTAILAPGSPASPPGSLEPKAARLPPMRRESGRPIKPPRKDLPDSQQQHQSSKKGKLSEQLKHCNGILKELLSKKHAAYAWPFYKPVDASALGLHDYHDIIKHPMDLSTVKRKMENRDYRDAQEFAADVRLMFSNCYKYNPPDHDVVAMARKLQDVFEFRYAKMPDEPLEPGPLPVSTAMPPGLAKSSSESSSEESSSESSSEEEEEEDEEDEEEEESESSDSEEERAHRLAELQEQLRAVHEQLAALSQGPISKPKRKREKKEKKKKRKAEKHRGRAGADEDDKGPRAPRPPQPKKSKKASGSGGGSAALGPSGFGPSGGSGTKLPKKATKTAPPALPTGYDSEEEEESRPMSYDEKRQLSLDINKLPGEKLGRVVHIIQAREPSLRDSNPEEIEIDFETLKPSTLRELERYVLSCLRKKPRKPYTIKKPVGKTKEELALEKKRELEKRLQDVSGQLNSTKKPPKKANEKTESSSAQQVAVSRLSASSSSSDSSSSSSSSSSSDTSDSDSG
# Chain of UniProt P07711 (whole entry, looked up): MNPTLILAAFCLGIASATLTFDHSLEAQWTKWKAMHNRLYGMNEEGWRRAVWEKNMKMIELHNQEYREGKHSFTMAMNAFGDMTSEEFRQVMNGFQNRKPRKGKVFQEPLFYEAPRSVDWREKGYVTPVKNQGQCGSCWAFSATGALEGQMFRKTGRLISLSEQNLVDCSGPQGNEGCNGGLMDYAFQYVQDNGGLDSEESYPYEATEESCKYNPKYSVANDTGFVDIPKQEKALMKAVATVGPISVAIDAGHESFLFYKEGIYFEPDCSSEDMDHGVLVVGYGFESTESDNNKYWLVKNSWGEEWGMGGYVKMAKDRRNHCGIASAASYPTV
# Chain of UniProt P00915 (whole entry, looked up): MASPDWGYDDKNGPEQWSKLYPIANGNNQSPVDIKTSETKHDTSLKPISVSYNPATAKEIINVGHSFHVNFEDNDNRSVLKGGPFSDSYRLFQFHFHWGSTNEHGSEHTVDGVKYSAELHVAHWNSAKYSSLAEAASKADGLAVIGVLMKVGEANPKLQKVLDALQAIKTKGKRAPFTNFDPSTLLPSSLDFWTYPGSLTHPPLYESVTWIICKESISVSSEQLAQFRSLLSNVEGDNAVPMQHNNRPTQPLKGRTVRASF
# Chain of UniProt Q04609 (whole entry, looked up): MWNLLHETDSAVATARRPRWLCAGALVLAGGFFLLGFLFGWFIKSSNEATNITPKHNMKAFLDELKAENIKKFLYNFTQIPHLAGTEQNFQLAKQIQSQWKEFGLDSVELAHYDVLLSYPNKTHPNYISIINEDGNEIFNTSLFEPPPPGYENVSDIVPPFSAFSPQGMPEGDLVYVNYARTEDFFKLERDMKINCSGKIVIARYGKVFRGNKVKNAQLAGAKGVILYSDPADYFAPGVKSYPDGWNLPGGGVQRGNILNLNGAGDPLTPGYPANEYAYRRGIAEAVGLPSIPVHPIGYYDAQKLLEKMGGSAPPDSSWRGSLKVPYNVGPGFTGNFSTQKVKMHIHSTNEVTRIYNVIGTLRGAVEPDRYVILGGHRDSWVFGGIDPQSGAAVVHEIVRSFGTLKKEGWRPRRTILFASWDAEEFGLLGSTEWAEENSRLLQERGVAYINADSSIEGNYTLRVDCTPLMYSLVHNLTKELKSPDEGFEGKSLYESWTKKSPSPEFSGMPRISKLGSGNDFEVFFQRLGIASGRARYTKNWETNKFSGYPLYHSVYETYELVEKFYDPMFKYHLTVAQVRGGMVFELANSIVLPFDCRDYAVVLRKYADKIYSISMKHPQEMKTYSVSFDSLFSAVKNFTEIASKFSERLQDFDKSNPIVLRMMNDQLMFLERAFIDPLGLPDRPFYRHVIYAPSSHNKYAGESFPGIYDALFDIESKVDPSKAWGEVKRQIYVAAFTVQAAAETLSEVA
# Chain of UniProt P35363 (whole entry, looked up): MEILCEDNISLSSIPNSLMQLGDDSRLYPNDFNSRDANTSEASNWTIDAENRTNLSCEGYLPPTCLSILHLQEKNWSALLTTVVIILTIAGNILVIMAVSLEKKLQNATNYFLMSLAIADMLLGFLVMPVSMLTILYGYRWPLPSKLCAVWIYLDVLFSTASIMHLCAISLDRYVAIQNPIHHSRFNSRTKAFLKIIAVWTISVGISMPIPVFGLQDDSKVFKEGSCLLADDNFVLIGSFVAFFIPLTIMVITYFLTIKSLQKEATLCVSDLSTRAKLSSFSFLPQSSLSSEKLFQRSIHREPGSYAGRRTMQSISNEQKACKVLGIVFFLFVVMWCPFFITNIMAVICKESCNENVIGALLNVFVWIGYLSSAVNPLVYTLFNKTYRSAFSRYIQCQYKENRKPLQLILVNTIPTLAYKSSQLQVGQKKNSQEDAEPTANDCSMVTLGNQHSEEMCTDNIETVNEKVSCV
# Chain of UniProt Q96NY8 (whole entry, looked up): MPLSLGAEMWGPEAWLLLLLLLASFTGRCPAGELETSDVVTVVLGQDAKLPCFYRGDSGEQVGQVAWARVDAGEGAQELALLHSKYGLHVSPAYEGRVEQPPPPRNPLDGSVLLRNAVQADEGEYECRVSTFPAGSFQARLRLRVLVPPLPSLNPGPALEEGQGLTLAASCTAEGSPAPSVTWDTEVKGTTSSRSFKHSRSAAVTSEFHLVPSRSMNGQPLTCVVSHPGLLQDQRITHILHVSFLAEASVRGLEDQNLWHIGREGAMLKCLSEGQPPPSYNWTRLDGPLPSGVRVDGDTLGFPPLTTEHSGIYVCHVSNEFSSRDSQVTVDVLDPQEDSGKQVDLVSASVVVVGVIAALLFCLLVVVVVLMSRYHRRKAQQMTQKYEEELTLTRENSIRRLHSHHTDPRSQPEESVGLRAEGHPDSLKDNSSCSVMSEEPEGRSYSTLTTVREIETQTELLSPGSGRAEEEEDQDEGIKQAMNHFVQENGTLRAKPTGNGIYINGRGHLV
SMILES,target,test,measurement,result
Cc1cn([C@H]2C[C@H](O)[C@@H](COP(=O)(O)OP(=O)(O)OP(=O)(O)O)O2)c(=O)[nH]c1=O,"dgt (Salmonella enterica, UniProt A0A5H6DAK1, H126A/E129A)","binding, ITC",Kd,> 4 µM
O=C(Nc1cccc(F)c1)Nc1ccc2c(c1)C=CCP(=O)(O)O2,CA2,"enzyme activity, inhibitor, stopped-flow",Ki,> 10 µM
CCCC[C@@H]1NC(=O)[C@H](Cc2ccc(O)cc2)NC(=O)[C@@H]2CCCN2C(=O)[C@H](CC(=O)O)NC(=O)[C@H](C)NC(=O)[C@H](Cc2ccccc2)NC(=O)[C@@H]2CSCCC(=O)N3CN(CN(C3)C(=O)CCSC[C@@H](C(=O)N[C@@H](C)C(N)=O)NC1=O)C(=O)CCSC[C@H](NC(C)=O)C(=O)N[C@@H](CC(C)(C)C)C(=O)N1CCC[C@H]1C(=O)N[C@@H](CCC(=O)O)C(=O)N[C@H](CCCCNC(=O)CCc1cn(CCOCCOCCOCCOCCOCCC(=O)NCCCC[C@H]3NC(=O)[C@H](Cc4cccc5ccccc45)NC(=O)[C@@H]4CCCN4C(=O)[C@@H](NC(C)=O)CSCCC(=O)N4CN5CN(C4)C(=O)CCSC[C@H](NC3=O)C(=O)N[C@@H](CCSC)C(=O)N[C@@H](CCCCNC(=N)N)C(=O)N[C@@H](Cc3c[nH]cn3)C(=O)N[C@@H](Cc3c[nH]c4ccccc34)C(=O)N[C@@H](CO)C(=O)N[C@@H]([C@@H](C)O)C(=O)N3CCC[C@H]3C(=O)N3C[C@H](O)C[C@H]3C(=O)N[C@@H](Cc3c[nH]c4ccccc34)C(=O)N[C@H](C(N)=O)CSCCC5=O)nn1)C(=O)N1CCC[C@H]1C(=O)N[C@@H](Cc1ccc(O)cc1)C(=O)N2,"Nectin-4 (Homo sapiens, UniProt Q96NY8)","binding, SPR",Kd,0.0007 µM
COc1cc(C(F)(F)F)c(OC)cc1C1CCCNC1 (stereo not drawn),"Htr2a (Mus musculus, UniProt P35363)","G protein activation, agonist, BRET",EC50,0.0191 µM
CN(CCc1ccc(Cl)c(Cl)c1)CCN1CCCC1,TMEM97,"ligand displacement, radioligand",Ki,0.016 µM
O=C(Nc1ccc(Br)cc1)Nc1ccc2c(c1)C=CCP(=O)(O)O2,CA2,"enzyme activity, inhibitor, stopped-flow",Ki,> 10 µM
CNCC(=O)c1ccccc1,"SLC6A4 (Homo sapiens, UniProt P31645)","calcium signal, agonist, fluorescence",EC50,> 60 µM and > 50 µM
CC(C)C[C@H](NC(=O)[C@@H](NC(=O)[C@H](C)N)C(C)C)C(=O)N[C@@H](CO)C(=O)NCC(=O)N[C@@H](CC(C)C)C(=O)N1CCC[C@H]1C(=O)N[C@@H](CCCCN)C(=O)N[C@@H](CCC(=O)O)C(=O)N[C@@H](CCC(=O)O)C(=O)N[C@@H](CCC(N)=O)C(=O)O,sapA,binding,Kd,0.0061 µM
O=C(Nc1ccc(F)cc1)Nc1ccc2c(c1)C=CCP(=O)(O)O2,CA12,"enzyme activity, inhibitor, stopped-flow",Ki,> 10 µM
FC(F)(F)Oc1ccc(OCCn2c(CNCC34CC5CC(CC(C5)C3)C4)nc3ccccc32)cc1,Penicillin-binding protein 2X,"binding, MST",Kd,90 µM
O=C(Nc1ccc2c(c1)C=CCP(=O)(O)O2)c1ccc([N+](=O)[O-])cc1,CA12,"enzyme activity, inhibitor, stopped-flow",Ki,0.0067 µM
CCOC(=O)c1cn(CC)c2cc(O[C@H]3CCN(C(=O)OC(C)(C)C)C3)ccc2c1=O,PFF0160c,"enzyme activity, inhibitor, absorbance",IC50,2.58 µM
CN[C@H]1CC[C@@H](c2ccc(Cl)c(Cl)c2)c2ccccc21,TMEM97,"ligand displacement, radioligand",Ki,2.03 µM
CC(NC(=O)c1ccc(-n2cnc3ccccc32)cc1)c1ccc(S(N)(=O)=O)cc1 (stereo not drawn),PFF0160c E182D,"enzyme activity, inhibitor, absorbance",IC50,3.41 µM
CC(C)(C)[C@]1(O)CCN2C[C@H]3c4ccccc4CCc4cccc(c43)[C@@H]2C1,TMEM97,"ligand displacement, radioligand",Ki,1.74 µM
Cc1cc(Nc2ccc(Cl)c(Cl)c2)n2nc(C)nc2n1,PFF0160c E182D,"enzyme activity, inhibitor, absorbance",IC50,1.68 µM
O=C(Nc1ccc2c(c1)C=CCP(=O)(O)O2)c1ccc(I)cc1,"CA1 (Homo sapiens, UniProt P00915)","enzyme activity, inhibitor, stopped-flow",Ki,> 10 µM
N=C(N)NCCC[C@H](N)C(=O)N[C@@H](CO)C(=O)N[C@@H](Cc1ccc(O)cc1)C(=O)N[C@@H](CCCCN)C(=O)N[C@@H](CCC(N)=O)C(=O)O,sapA,binding,Kd,0.258 µM
COCC(C)n1c(SCC(=O)Nc2cc(C(F)(F)F)ccc2Cl)nc2ccccc2c1=O (stereo not drawn),PFF0160c E182D,"enzyme activity, inhibitor, absorbance",IC50,> 10 µM
CC[C@H](C)[C@H](NC(=O)[C@H](CCCNC(=N)N)NC(=O)[C@H](CCCNC(=N)N)NC(=O)[C@H](CCC(=O)O)NC(=O)[C@H](CCC(=O)O)NC(=O)[C@@H](N)[C@@H](C)O)C(=O)N[C@@H](CCSC)C(=O)N[C@@H](CCCNC(=N)N)C(=O)N[C@@H](C)C(=O)N[C@@H](CCCNC(=N)N)C(=O)N[C@H](C(=O)N[C@@H](CCC(N)=O)C(=O)NCC(=O)N[C@@H](CC(C)C)C(=O)N[C@@H](CC(C)C)C(=O)N[C@@H](Cc1c[nH]c2ccccc12)C(=O)O)[C@@H](C)O,APLNR,"calcium signal, agonist, fluorescence",EC50,0.416 µM
COc1ccccc1Cn1ccnc1SCC(=O)Nc1cc(C(F)(F)F)ccc1Cl,PFF0160c E182D,"enzyme activity, inhibitor, absorbance",IC50,0.306 µM
CCOC(=O)N[C@@H](CCCNC(=N)N)C(=O)N[C@@H](CCC(N)=O)C(=O)N[C@@H](Cc1ccccc1)C(=O)N[C@@H](CCCNC(=N)N)C(=O)c1nc2ccccc2s1,"TMPRSS13 (Homo sapiens, UniProt Q9BYE2)",cell-free assay,Ki,0.012 µM
c1nc2nc3c(c(Nc4ccc5c(c4)CCC5)n2n1)CCC3,PFF0160c,"enzyme activity, inhibitor, absorbance",IC50,2.5 µM
COc1cccc(NC(=O)Nc2ccc3c(c2)C=CCP(=O)(O)O3)c1,CA12,"enzyme activity, inhibitor, stopped-flow",Ki,> 10 µM
CC(C)[C@H](NC(=O)[C@@H]1CCCN1C(=O)[C@@H](N)Cc1c[nH]cn1)C(=O)N[C@@H](Cc1ccccc1)C(=O)NCC(=O)N1CCC[C@H]1C(=O)N[C@@H](CCCNC(=N)N)C(=O)N[C@@H](CCCNC(=N)N)C(=O)N[C@@H](Cc1ccc(O)cc1)C(=O)N[C@@H](CCCCN)C(=O)N[C@@H](CCC(N)=O)C(=O)O,sapA,binding,Kd,0.0059 µM
CC(c1ccc(OC(F)(F)F)cc1)c1nn2c(-c3cccs3)nnc2s1 (stereo not drawn),PFF0160c,"enzyme activity, inhibitor, absorbance",IC50,1.44 µM
Cc1c(-c2ccccc2)oc2c(C(=O)OCCN3CCCCC3)cccc2c1=O,TMEM97,"ligand displacement, radioligand",Ki,> 10 µM
N=C(N)NCCC[C@H](NC(=O)[C@H](Cc1ccccc1)NC(=O)[C@H](CCC(N)=O)NC(=O)OCc1ccccc1)C(=O)c1nccs1,"Procathepsin L (CTSL, Homo sapiens, UniProt P07711)",cell-free assay,Ki,> 10 µM
CC1(C)CN(CCCCC(=O)N[C@H](Cc2ccc(O)c(I)c2)C(=O)N[C@H](Cc2ccccc2)C(=O)N[C@H](CCCCNC(=O)CCCCCCC(=O)NCCCC[C@H](NC(=O)N[C@@H](CCC(=O)O)C(=O)O)C(=O)O)C(=O)O)CC[N]2CC(C)(C)[S][Tc]2(=[O])[S]1 (stereo partly drawn),"FOLH1 (Homo sapiens, UniProt Q04609)","binding, radioligand",Kd,0.0084 µM
Fc1ccc([C@@H]2CCNC[C@H]2COc2ccc3c(c2)OCO3)cc1,TMEM97,"ligand displacement, radioligand",Ki,3.1 µM
O=C(Nc1ccc(I)cc1)Nc1ccc2c(c1)C=CCP(=O)(O)O2,CA12,"enzyme activity, inhibitor, stopped-flow",Ki,> 10 µM
CC(C)(CN)CNCc1nc2ccccc2n1CCOc1ccccc1,Penicillin-binding protein 2X,"binding, MST",Kd,790 µM
CC(C)C[C@H](NC(=O)[C@H](Cc1ccccc1)NC(=O)[C@H](Cc1ccc(O)cc1)NC(=O)CNC(=O)[C@H](CCCCN)NC(=O)[C@H](CO)NC(=O)[C@H](CCC(N)=O)NC(=O)CNC(=O)[C@@H](NC(=O)[C@H](CO)NC(=O)[C@@H]1CCCN1C(=O)[C@H](CO)NC(=O)[C@H](CCC(N)=O)NC(=O)[C@H](Cc1ccc(O)cc1)NC(=O)[C@H](CCC(=O)O)NC(=O)[C@H](C)NC(=O)[C@H](CCCCN)NC(=O)[C@@H](N)Cc1ccccc1)C(C)C)C(=O)N[C@@H](Cc1ccccc1)C(=O)N[C@@H](CCCNC(=N)N)C(=O)N1CCC[C@H]1C(=O)N[C@@H](CCCNC(=N)N)C(=O)N[C@@H](CC(N)=O)C(N)=O,"NMUR1 (Homo sapiens, UniProt Q9HB89)","β-arrestin recruitment, agonist",EC50,0.000692 µM
CC(C)C[C@H](NC(=O)[C@H](CCCNC(=N)N)NC(=O)[C@H](CC(=O)O)NC(=O)[C@@H](N)CCC(=O)O)C(=O)N[C@@H](C)C(=O)N[C@H](C(=O)N[C@@H](CS)C(=O)N[C@@H](CCCNC(=N)N)C(=O)N[C@@H](CC(C)C)C(=O)N[C@@H](CCC(N)=O)C(=O)N1CCC[C@H]1C(=O)N[C@@H](CC(C)C)C(=O)N[C@@H](Cc1ccccc1)C(=O)N1CCC[C@H]1C(=O)O)C(C)C,APLNR,"calcium signal, agonist, fluorescence",EC50,0.524 µM
N=C(N)NCCC[C@H](NC(=O)[C@@H](N)CCCNC(=N)N)C(=O)N[C@@H](Cc1ccc(O)cc1)C(=O)N[C@@H](CCCCN)C(=O)N[C@@H](CCC(N)=O)C(=O)O,sapA,binding,Kd,0.005 µM
Cn1nc2c(=O)n(C3CC3)cnc2c1[C@](O)(c1cnc(C(F)(F)F)c(Cl)c1)C(F)(F)F,PFF0160c,"enzyme activity, inhibitor",IC50,0.0158 µM
CNCCC(Oc1ccc(C(F)(F)F)cc1)c1ccccc1 (stereo not drawn),TMEM97,"ligand displacement, radioligand",Ki,0.792 µM
Cc1sc(CNCCCNc2cc(=O)c3ccccc3[nH]2)c(I)c1C,PFF0160c,"enzyme activity, inhibitor, absorbance",IC50,1.79 µM
COC(=O)C[C@@H]1N=C(c2c3ccccc3cc3ccccc23)c2cc(OC)ccc2-n2c(C)nnc21,"Bromodomain-containing protein 2, BD2 (BRD2, Homo sapiens, UniProt P25440)","binding, SPR",Kd,7.48 µM
O=C(Nc1ccc(C(F)(F)F)cc1)Nc1ccc2c(c1)C=CCP(=O)(O)O2,CA2,"enzyme activity, inhibitor, stopped-flow",Ki,> 10 µM
CCn1cc(C2CC2)c2c(CN3CCCC(F)(F)C3)n(C)nc2c1=O,PFF0160c,"enzyme activity, inhibitor, absorbance",IC50,0.053 µM
c1ccc2[nH]c(CNCC34CC5CC(CC(C5)C3)C4)nc2c1,Penicillin-binding protein 2X,"binding, MST",Kd,925 µM

# Some of these lines once more:
SMILES,target,test,measurement,result
Cn1nc2c(=O)n(C3CC3)cnc2c1[C@](O)(c1cnc(C(F)(F)F)c(Cl)c1)C(F)(F)F,PFF0160c,"enzyme activity, inhibitor",IC50,0.0158 µM
CC(c1ccc(OC(F)(F)F)cc1)c1nn2c(-c3cccs3)nnc2s1 (stereo not drawn),PFF0160c,"enzyme activity, inhibitor, absorbance",IC50,1.44 µM
CNCC(=O)c1ccccc1,"SLC6A4 (Homo sapiens, UniProt P31645)","calcium signal, agonist, fluorescence",EC50,> 60 µM and > 50 µM
CC(C)[C@H](NC(=O)[C@@H]1CCCN1C(=O)[C@@H](N)Cc1c[nH]cn1)C(=O)N[C@@H](Cc1ccccc1)C(=O)NCC(=O)N1CCC[C@H]1C(=O)N[C@@H](CCCNC(=N)N)C(=O)N[C@@H](CCCNC(=N)N)C(=O)N[C@@H](Cc1ccc(O)cc1)C(=O)N[C@@H](CCCCN)C(=O)N[C@@H](CCC(N)=O)C(=O)O,sapA,binding,Kd,0.0059 µM
